Measurements from different studies.
“And” joins repeats or separate records; there may be more than shown. Numbers after ± are the reported error.
USP16 ZnF-UBD domain: Ubiquitin carboxyl-terminal hydrolase 16, ZnF-UBD domain (USP16, Homo sapiens, UniProt Q9Y5T5)
UniProt Q9Y5T5, sequence (whole entry, looked up): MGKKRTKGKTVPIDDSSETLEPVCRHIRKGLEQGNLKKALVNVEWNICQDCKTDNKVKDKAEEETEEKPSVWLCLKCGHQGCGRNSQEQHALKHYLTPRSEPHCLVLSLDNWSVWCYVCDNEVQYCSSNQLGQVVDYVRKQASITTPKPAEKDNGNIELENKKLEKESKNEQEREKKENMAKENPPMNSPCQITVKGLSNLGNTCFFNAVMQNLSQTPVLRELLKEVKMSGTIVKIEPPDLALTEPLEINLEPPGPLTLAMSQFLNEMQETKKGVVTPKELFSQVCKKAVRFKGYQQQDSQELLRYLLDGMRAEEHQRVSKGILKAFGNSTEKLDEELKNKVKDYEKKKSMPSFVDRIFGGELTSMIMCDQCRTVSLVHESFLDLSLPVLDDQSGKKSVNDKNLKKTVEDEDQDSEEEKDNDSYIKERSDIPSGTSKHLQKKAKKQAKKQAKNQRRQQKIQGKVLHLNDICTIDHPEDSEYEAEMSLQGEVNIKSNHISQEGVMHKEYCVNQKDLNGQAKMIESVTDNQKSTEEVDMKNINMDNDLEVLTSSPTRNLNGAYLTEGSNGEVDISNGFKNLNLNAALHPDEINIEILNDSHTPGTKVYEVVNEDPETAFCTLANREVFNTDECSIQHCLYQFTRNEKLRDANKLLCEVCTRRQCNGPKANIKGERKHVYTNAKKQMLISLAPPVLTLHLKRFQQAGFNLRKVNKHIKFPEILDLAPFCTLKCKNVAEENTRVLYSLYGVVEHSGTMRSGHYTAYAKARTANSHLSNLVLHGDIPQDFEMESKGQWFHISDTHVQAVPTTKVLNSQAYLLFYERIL

COc1ccc2c(c1)CN(C(=O)CCN1CCC(Cc3ccccc3)CC1)CC[S@@+]2[O-]  PQ interval (telemetry; conscious male beagle dogs; intravenous, 8 mg/kg, 24 h): 87 ± 10 ms
CC(=O)N[C@H]1[C@@H](OP(=O)(O)OP(=O)(O)OC[C@H]2O[C@@H](n3ccc(=O)[nH]c3=O)[C@H](O)[C@@H]2O)O[C@H](CO)[C@@H](O)[C@@H]1O  log2 fold change (binding, MIDAS equilibrium dialysis LC-MS; A2AR-BRIL thermostabilized; concentration not given; relative to: no-protein control): -0.191
COc1ccc2cc(CCC[18F])ccc2c1  partition coefficient (n-octanol/0.1 M phosphate buffer; pH 7.4, 25 °C, per radiosynthesis batch): 296 and 292 and 272
NC(N)=NCC(=O)O  log2 fold change (binding, MIDAS equilibrium dialysis LC-MS; A2AR-BRIL thermostabilized; concentration not given; relative to: no-protein control): -0.0709
C/C=C/C(=O)Nc1ccc(-n2nc3c(=O)[nH]nc(N)c3c2-c2oc3ccc(C)cc3c2C)cc1  remaining compound (BALB/c nude mouse, whole blood; 1 µM, 5 h, 37 °C): 95%
COc1cc2c3c(n(CCCN4CCOCC4)c(=O)c2cc1OC)-c1cc2c(cc1C3=O)OCO2  volume of distribution (Fischer 344 rats, female; intravenous bolus, 12 mg/m^2): 178 L/m²
NC(=O)c1cc(Oc2ccc(NC(=O)Nc3ccc(Cl)c(C(F)(F)F)c3)c(F)c2)cc[n+]1[O-]  accuracy (short-term stability; mouse plasma; 25 ng/mL, 8 h, room temperature): 106%
Cn1cc(Nc2nccc(-c3ccc4c(c3)CN(C3COC3)CC[C@H]4NC(=O)c3cn(C(C)(C)C)nn3)n2)cn1  percent change from baseline (item: B cells, memory, non-class-switched; human, clinical trial, whole blood; 150 mg twice daily, follow-up): -17.4%
Cc1ccc([C@@H]2O[C@H](CO)[C@@H](O)[C@H](O)[C@H]2O)cc1Cc1ccc(-c2ccc(F)cc2)s1  urinary potassium excretion change (Japanese type 2 diabetes patients; 25 mg, day 4, 24 h urine collection; relative to: baseline): -2.24 mEq
C[C@@H](N)C1CCN(S(=O)(=O)c2cccc3cnccc23)CC1  participants with orthostatic hypotension (healthy volunteers; 150 mg, fasted): 0%
O=C(Nc1cnccc1Cl)N1CCN(Cc2ccc3c(c2)OC(F)(F)O3)CC1  abdominal pain incidence (multiple ascending dose; young men; 25 mg, treatment-emergent adverse events): 0%
CCN(CC)CCNC(=O)c1cc(Cl)c(N)cc1OC  unbound fraction in cells (ultrafiltration; dog, cell homogenate; 1 µM, 15 min): 0.17
Cn1cc(-c2ccc(-c3cncc(Cl)c3N3CCC4(CCNC4=O)CC3)cc2)cn1  log2 fold change (COLO 205; gene expression, microarray, item: POU2AF1 mRNA; concentration not given, 6 h; relative to: untreated cells): -4.11
COC(=O)C1=CO[C@@H](O[C@@H]2O[C@H](CO)[C@@H](O)[C@H](O)[C@H]2O)[C@@H]2C(CO)=CC[C@H]12  accuracy (post-procedure stability; rat plasma; 200 ng/mL, 1 h, room temperature): 104%
CC[C@H](C)[C@H](NC(=O)CN)C(=O)N[C@@H](CC(C)C)C(=O)N[C@@H](CC(=O)O)C(=O)N[C@@H](C)C(=O)N[C@H](C(=O)N[C@@H](CCCCN)C(=O)N[C@@H](C)C(=O)N[C@H](C(=O)N[C@@H](C)C(=O)N[C@@H](CCCCN)C(=O)N[C@@H](C)C(=O)N[C@@H](C)C(=O)NCC(N)=O)[C@@H](C)CC)[C@@H](C)CC  helix content (circular dichroism; 10 mM SDS; 100 µM): 13%
N#Cc1ccc2c(c1)[C@H]1CCCN(C(=O)c3ccc4[nH]cnc4c3)[C@H]1C2  SHBG level (human males; 20 mg, day 15): 39.7 nmol/L
C=CC(=O)N1CCC([C@@H]2CCNc3c(C(N)=O)c(-c4ccc(Oc5ccccc5)cc4)nn32)CC1  stability relative error (rat plasma; 800 ng/mL, three freeze-thaw cycles; relative to: nominal concentration): 0.3%
CCc1cc(C(=O)NC)c2nccc(N3CCc4c(cc(Cn5ccnc5)cc4-c4cn(C)nc4C(F)(F)F)C3=O)c2c1  serum TG change (Sprague Dawley rats; oral, 100 mg/kg once daily, 7 days; relative to: vehicle): -30.7%
Cc1c(-c2ccc(N3CCc4cccc(C(=O)Nc5nc6ccccc6s5)c4C3)nc2C(=O)O)cnn1CC12CC3(C)CC(C)(C1)CC(OCCNCC[C@H](O)CO)(C3)C2  systemic vascular resistance change (anaesthetised male beagle dogs; intravenous infusion, 0.3 mg/kg/min, 120 min; relative to: vehicle): -9%
CO[C@H]1C[C@@H]2CC[C@@H](C)[C@@](O)(O2)C(=O)C(=O)N2CCCC[C@H]2C(=O)O[C@H]([C@H](C)C[C@@H]2CC[C@@H](O)[C@H](OC)C2)CC(=O)[C@H](C)/C=C(\C)[C@@H](O)[C@@H](OC)C(=O)[C@H](C)C[C@H](C)/C=C/C=C/C=C/1C  rectal temperature (healthy adult horses; intravenous, 0.06 mg/kg, 0 h): 37.1 ± 0.4 °C
C[Si]1(C)O[Si](C)(C)O[Si](C)(C)O[Si](C)(C)O1  entropy of phase change (air/water; concentration not given): 0.3 kJ/(mol·K)
CCN1CCN(Cc2ccc(Nc3ncc(F)c(-c4cc(F)c5nc6n(c5c4)[C@H](C)CCC6)n3)nc2)CC1  CL/F (human, plasma; 100 mg multiple dosing, mean): 38.4 L/h
COc1cc([C@H]2OC[C@H]3[C@@H]2CO[C@@H]3c2ccc(O[C@@H]3O[C@H](CO)[C@@H](O)[C@H](O)[C@H]3O)c(OC)c2)ccc1O[C@@H]1O[C@H](CO)[C@@H](O)[C@H](O)[C@H]1O  accuracy (post-procedure stability; rat plasma; 8 ng/mL, 3 h, room temperature): 106%
O=C(O)CCn1cccn1  Kd (USP16 ZnF-UBD domain): > 1000 µM
c1ccc2c(c1)ccc1cc3c(ccc4ccccc43)cc12  literature range factor (polyethylene-water partitioning; PAH compilation; relative to: maximum over minimum K): 48
FC(F)(F)c1ccc(CNc2ccc(Cc3c[nH]c4ncc(Cl)cc34)cn2)cn1  treatment-related adverse events (item: Dizziness; patients with advanced solid tumours, non-TGCT cohort; oral, 1000 mg/day, any grade): 0%
CCOC(=O)c1c(NC(=O)CNC(C)C)sc2c1CCCCC2  brain AUC(0-0.5 h) (mouse, brain; intraperitoneal, 5 mg/kg): 94.8 ng·h/g
CNC(=O)c1ccc(-c2cnc3ncc(Cc4ccc5ncccc5c4)n3n2)cc1F  patients with adverse event (item: Pyrexia, all grades; cancer patients; oral, 600 mg twice daily, expansion cohort, any causality): 11%
CN(C(=O)n1cnc(-c2ccc[n+]([O-])c2)c1)[C@H]1CC[C@H](O)CC1  tissue concentration (rat, hippocampus; oral, 10 mg/kg daily for 5 days, 48 h): 13.3 ± 0.4 ng/g
O=C(Nc1ccc(OC(F)(F)Cl)cc1)c1cnc(N2CC[C@@H](O)C2)c(-c2ccn[nH]2)c1  grade ≥3 event rate (per laboratory record, item: amylase increase; human patients; oral, dose not given): 0%
O=C(Nc1nc2cccc(-c3ccc(CN4CCS(=O)(=O)CC4)cc3)n2n1)C1CC1  patients with adverse event (item: abdominal discomfort; rheumatoid arthritis patients; oral, 30 mg once daily, 4 weeks, any relatedness): 0%
O=C(O)CSc1nnc(NC(=O)COc2ccccc2)s1  Kd (USP16 ZnF-UBD domain): 372 µM
O=C(OC(C(F)(F)F)C(F)(F)F)N1CCN(Cc2cccc(Oc3ccccc3)c2)CC1  k2 (PET blocking study; rhesus monkey, brain Pons; 0.1 mg/kg, compound pretreatment, added: [18F]T-401 tracer): 9.47 min⁻¹
CNCCOC12CC3(C)CC(C)(CC(Cn4ncc(-c5ccc(N6CCc7cccc(C(=O)Nc8nc9ccccc9s8)c7C6)nc5C(=O)O)c4C)(C3)C1)C2  cardiac output change (anaesthetised male beagle dogs; intravenous bolus, 0.03 mg/kg, 60 min; relative to: baseline): -20%
CN(C)C(=N)N=C(N)N  subjects with adverse event (item: arthropod bite; healthy men; oral, dose not given, 8 days, treatment-emergent, crossover trial): 4.5%
CCCC(CCC)C(=O)Oc1cccc(C(O)CCN)c1.O=CO (centres unmarked)  ERG, scotopic, rod b-wave (Abca4-/-Rdh8-/- mice, photic damage; oral, 20 mg/kg, 7 days, flash intensity 0.05): 124 µV and 140 µV and 84.5 µV and 113 µV and 86.8 µV and 116 µV
CN(C(=O)n1cnc(-c2ccc[n+]([O-])c2)c1)[C@H]1CC[C@H](O)CC1  Tmax (cynomolgus monkeys, plasma; oral, 1.0 mg/kg): 2 h
COc1cc(Nc2ncc3c(n2)-c2ccc(Cl)cc2C(c2c(F)cccc2OC)=NC3)ccc1C(=O)O  patients with adverse event (item: Constipation, grade 1; cancer patients, phase 1/2; oral, dose not given, added: pembrolizumab): 13%

Some of these lines once more:
O=C(O)CSc1nnc(NC(=O)COc2ccccc2)s1  Kd (USP16 ZnF-UBD domain): 372 µM
O=C(OC(C(F)(F)F)C(F)(F)F)N1CCN(Cc2cccc(Oc3ccccc3)c2)CC1  k2 (PET blocking study; rhesus monkey, brain Pons; 0.1 mg/kg, compound pretreatment, added: [18F]T-401 tracer): 9.47 min⁻¹
